Assay results pooled from the literature.
Lines come from different studies, so protocols differ. Numbers after ± are the reported error.
USP13 ZnF-UBD domain: Ubiquitin carboxyl-terminal hydrolase 13, ZnF-UBD domain (USP13, Homo sapiens, UniProt Q92995)
Sequence of UniProt Q92995 (whole entry, looked up): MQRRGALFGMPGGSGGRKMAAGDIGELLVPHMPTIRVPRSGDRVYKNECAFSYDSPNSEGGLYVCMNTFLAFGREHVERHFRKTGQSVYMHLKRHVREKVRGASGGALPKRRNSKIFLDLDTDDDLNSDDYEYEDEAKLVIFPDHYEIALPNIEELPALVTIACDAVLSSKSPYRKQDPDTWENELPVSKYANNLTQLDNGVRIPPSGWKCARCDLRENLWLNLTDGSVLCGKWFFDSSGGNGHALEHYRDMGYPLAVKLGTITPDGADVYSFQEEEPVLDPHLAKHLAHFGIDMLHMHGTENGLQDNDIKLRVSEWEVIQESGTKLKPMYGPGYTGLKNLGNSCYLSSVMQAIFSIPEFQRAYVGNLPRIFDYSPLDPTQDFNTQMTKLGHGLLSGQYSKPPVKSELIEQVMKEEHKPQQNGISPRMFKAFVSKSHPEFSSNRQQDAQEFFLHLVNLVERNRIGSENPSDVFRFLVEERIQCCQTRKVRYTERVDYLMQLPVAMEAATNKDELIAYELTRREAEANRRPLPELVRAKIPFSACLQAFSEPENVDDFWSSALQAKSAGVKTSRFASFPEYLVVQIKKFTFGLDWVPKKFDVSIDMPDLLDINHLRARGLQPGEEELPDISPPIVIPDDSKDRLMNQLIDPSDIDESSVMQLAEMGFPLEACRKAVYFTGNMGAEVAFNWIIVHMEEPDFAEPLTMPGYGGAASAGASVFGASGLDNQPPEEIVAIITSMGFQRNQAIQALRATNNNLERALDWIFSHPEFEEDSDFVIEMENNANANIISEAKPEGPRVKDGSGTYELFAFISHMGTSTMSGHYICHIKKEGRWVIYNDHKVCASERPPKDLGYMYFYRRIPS
Sequence of UniProt Q9UKI8 (whole entry, looked up): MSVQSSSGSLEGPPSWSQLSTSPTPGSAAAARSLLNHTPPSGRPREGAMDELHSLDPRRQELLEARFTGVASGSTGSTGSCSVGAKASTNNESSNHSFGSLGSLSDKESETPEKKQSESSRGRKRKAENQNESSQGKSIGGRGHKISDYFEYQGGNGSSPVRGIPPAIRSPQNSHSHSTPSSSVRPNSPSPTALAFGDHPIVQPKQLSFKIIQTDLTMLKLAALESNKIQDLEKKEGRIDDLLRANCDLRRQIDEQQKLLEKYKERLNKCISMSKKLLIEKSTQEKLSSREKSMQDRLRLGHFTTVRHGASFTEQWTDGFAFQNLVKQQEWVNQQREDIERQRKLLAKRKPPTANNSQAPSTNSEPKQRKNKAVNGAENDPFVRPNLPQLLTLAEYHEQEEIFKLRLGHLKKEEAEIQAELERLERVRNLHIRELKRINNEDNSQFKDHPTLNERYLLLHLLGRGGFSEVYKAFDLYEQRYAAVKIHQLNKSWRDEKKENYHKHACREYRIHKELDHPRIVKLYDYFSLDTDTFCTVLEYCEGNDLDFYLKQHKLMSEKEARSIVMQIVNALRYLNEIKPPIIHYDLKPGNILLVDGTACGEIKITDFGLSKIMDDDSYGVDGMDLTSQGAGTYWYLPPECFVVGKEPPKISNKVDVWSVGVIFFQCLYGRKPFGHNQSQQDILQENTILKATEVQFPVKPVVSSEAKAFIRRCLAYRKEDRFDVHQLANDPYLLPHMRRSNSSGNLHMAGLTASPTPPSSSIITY

The inhibition of `NCC(=O)Nc1cncc(-c2nn3c(=O)cc(N4CCNCC4)nc3s2)c1` is reported as 45% (ADP-induced platelet aggregation, light transmission aggregometry; human, stable CAD on aspirin, ex vivo platelets; subcutaneous, 0.04 mg/kg, 30 min post-dose, mean value, together with: ADP 20 µM).
For `CC[C@@H]1[C@H](F)C(=O)N[C@@H]1COc1nccc2cc(C(N)=O)c(OC)cc12`, the IC50 was 1.9 µM (TLK1 (Homo sapiens, UniProt Q9UKI8); ATP-site probe binding, inhibitor, ActivX ATP probe profiling; THP-1 cell lysate; probe site Lys1).
`CC(C)NCC(O)c1ccc(O)c(O)c1` (stereo not shown) has a sarcomere length of 1.72 µm (ventricular cardiomyocytes, C57BL/6 mouse; dose not given, 0.396 s).
`C[C@H](Oc1ccc(Br)cc1-c1ccon1)C(=O)O` — result for “difference from placebo”: 8.41% (first response peak; human, tibialis anterior muscle; 50 mg, 30 Hz, single ascending dose).
`Cc1n[nH]c2ccc(-c3cc(OC[C@@H](N)Cc4ccccc4)cnc3-c3ccoc3)cc12` — result for “log2 fold change”: -1.48 (kinase binding, competitor, MIB/MS competition, item: YPK1; Candida albicans cell lysate; 10 µM; relative to: DMSO).
Under “change in EEG Alpha2-power Fz-Cz”, `OC(CCN1CCCCC1)(c1ccccc1)C1CC2C=CC1C2` (stereo not shown) is recorded as 40.4% (resting-state EEG; healthy elderly humans; oral, 4 mg, eyes closed, LS mean; relative to: baseline).
`Cn1cc(-c2ccc(-c3cncc(Cl)c3N3CCC4(CCNC4=O)CC3)cc2)cn1` — result for “log2 fold change”: -2.13 (COLO 205; gene expression, microarray, item: PCK2 mRNA; concentration not given, 6 h; relative to: untreated cells).
Under “log2 fold change”, `c1ccc(-c2n[nH]cc2-c2ccnc3ccccc23)nc1` is recorded as 1.35 (kinase binding, competitor, MIB/MS competition, item: CKA1; Candida albicans cell lysate; 1 µM; relative to: DMSO).
Under “overall response rate”, `COc1ccc(F)cc1C(=O)NCc1ccc(-c2nn([C@@H](C)C(F)(F)F)c(N)c2C(N)=O)cc1` is recorded as 68% (Waldenström macroglobulinemia patients; dose not given, all efficacy-evaluable patients).
`O=C(O)CNC(=O)Cc1ccccc1` gave a sarcomere length of 1.72 µm (ventricular cardiomyocytes, C57BL/6 mouse; dose not given, 0.38 s).
`COc1cc2cc(-c3ccc(CC(=O)Nc4cc(C(C)(C)C(F)(F)F)no4)cn3)cnc2cc1OC`: “stable disease as best response” 49% (human RET-altered advanced solid tumours; 75 mg, phase I pooled, RECIST 1.1).
For `Cc1nn(-c2nc3c(F)cc(F)cc3s2)c(O)c1C(c1ccc(C(F)(F)F)cc1)c1c(C)nn(-c2nc3c(F)cc(F)cc3s2)c1O`, the histology score was 0 (item: pancreatic haemorrhage; mouse, cerulein-induced acute pancreatitis; 25 mg/kg; direction not given).
For `CSCCNc1nc(SCCC(F)(F)F)nc2c1ncn2[C@@H]1O[C@H](COP(=O)(O)OP(=O)(O)C(Cl)(Cl)P(=O)(O)O)[C@@H](O)[C@H]1O`, “inhibition of platelet aggregation” read 43.5 ± 22.9% (light transmittance aggregometry; human patients, platelet-rich plasma; dose not given, 2 h, together with: ADP 5 µM).
With `O=C(O)CCC(=O)c1cccs1` the Kd was 194 µM (USP13 ZnF-UBD domain).
Under “C-peptide AUC change”, `N#Cc1ccc2c(c1)[C@H]1CCCN(C(=O)c3ccc4[nH]cnc4c3)[C@H]1C2` is recorded as -0.09 pmol/h/L (meal tolerance test; human, Phase II trial; 240 mg once daily, day 28, AUC0-2 h, adjusted mean; relative to: baseline).
With `CN[C@@H]1COc2c(S(=O)(=O)NC(=O)Nc3c4c(cc5c3CCC5)CCC4)cnn2C1` the inhibition was 48% (item: IL-18; human participants, whole blood ex vivo; 1800 mg single dose, 72 h, IL-18, circulating, adjusted for, together with: LPS/ATP; relative to: baseline).
`NC(=O)c1cnc2[nH]ccc2c1N[C@@H]1[C@@H]2CC3C[C@H]1C[C@@](O)(C3)C2` — result for “total memory T-cell change”: 0.53% (flow cytometry; Japanese healthy men, blood; oral, 200 mg single dose, 24 h; relative to: baseline).
The Kd of `NS(=O)(=O)c1ccc(NCC(=O)O)cc1` is reported as greater than 1000 µM (USP13 ZnF-UBD domain).
`C[C@H]1C[C@H]2CSC(N)=N[C@@]2(c2nc(NC(=O)c3ccc(OC(F)F)cn3)cs2)CO1`: “percent change from baseline” -88.3% (item: Aβ1-40; healthy adults, plasma; 275 mg once daily, day 1; relative to: placebo).

For quick reference, copied from above:
Under “log2 fold change”, `c1ccc(-c2n[nH]cc2-c2ccnc3ccccc23)nc1` is recorded as 1.35 (kinase binding, competitor, MIB/MS competition, item: CKA1; Candida albicans cell lysate; 1 µM; relative to: DMSO).
